# Assay results pooled from the literature.
# Lines come from different studies, so protocols differ. Values joined by “and” are separate records of one study, mostly repeats; a detail may differ. ± gives the spread as reported.
Structure (SMILES),target or system,assay,test system,conditions,how to read,quantity,result
C=CCn1c(=O)c2cnc(Nc3ccc(N4CCN(C)CC4)cc3)nc2n1-c1ccc2c(n1)[C@@](O)(CC)CC2,,,"MDA-MB-231 xenograft, BALB/c nude mice","oral, 80 mg/kg once daily x 28, day 41",,tumour volume difference,611 ± 16.8 mm3
CN[C@@H]1COc2c(S(=O)(=O)NC(=O)Nc3c4c(cc5c3CCC5)CCC4)cnn2C1,,measured: IL-18,"human participants, whole blood ex vivo","300 mg twice daily, multiple doses, 8 h, IL-18, circulating, adjusted for, together with: LPS/ATP",reference: baseline,inhibition,94.2%
CCOc1c([C@H](C)n2nc(C)c3c(N)ncnc32)cc(Cl)c(F)c1[C@@H]1CNC(=O)C1,,"Olink proximity extension, measured: MMP-9","human FL or MZL patients, plasma","dose not given, week 8 day 1, once-daily dosing",reference: baseline,percent change in level,-63%
Cc1n[nH]c2ccc(-c3cc(OC[C@@H](N)Cc4ccccc4)cnc3-c3ccoc3)cc12,,"kinase binding, competitor, MIB/MS competition, measured: RTK1",Candida albicans cell lysate,100 nM,reference: DMSO,log2 fold change,0.0613
N#Cc1ccc2c(c1)[C@H]1CCCN(C(=O)c3ccc4[nH]cnc4c3)[C@H]1C2,,measured: ACTH,"human, Phase II trial","oral, 20 mg once daily, last treatment, HPA axis, mean",,plasma level,11.6 pmol/L
COc1cc(Nc2ncc3c(n2)-c2ccc(Cl)cc2C(c2c(F)cccc2OC)=NC3)ccc1C(=O)O,,,"female NOD/scid mice, ALL-2 B-precursor ALL xenograft","2.6 mg/kg, 5 days weekly, score scale 0 to 10",direction not given,median response score,2
COc1cc(O)c(CC=C(C)C)c(O)c1C(=O)/C=C/c1ccc(O)cc1,,glucose tolerance test,"Tac:SW mice (male, conventional, high-fat diet)","in diet, 60 mg/kg per day, 15 min after glucose, after 10 weeks",,blood glucose,201 mg/dL
Cn1cc(-c2ccc(-c3cncc(Cl)c3N3CCC4(CCNC4=O)CC3)cc2)cn1,COLO 205,"gene expression, microarray, measured: CCNB1 mRNA",,"concentration not given, 2 h",reference: untreated cells,log2 fold change,-2.32
Oc1nc2nonc2cc1Nc1c(F)c(F)c(F)c(F)c1F,,glucose tolerance test,Western diet-fed mice,"in diet, 130 mg/kg/day, end of treatment",reference: Western diet control,blood glucose,decreased
C[C@H](Oc1ccc(Br)cc1-c1ccon1)C(=O)O,,muscle velocity recovery cycles,"human, tibialis anterior muscle","200 mg once daily, multiple doses, multiple ascending dose",reference: placebo,latency,0.232 ms
CC(C)C[C@H](NC(=O)C[C@H](O)[C@H](CC(C)C)NC(=O)[C@H](Cc1c[nH]cn1)NC(=O)CNC(=O)[C@@H](NC(=O)[C@H](C)NC(=O)[C@H](Cc1c[nH]c2ccccc12)NC(=O)[C@H](CCC(N)=O)NC(=O)[C@@H](Cc1ccccc1)NC(=O)COCCOCCNC(=O)CCC(C(=O)O)N1CCN(CC(=O)O)CCN(CC(=O)O)CCN(CC(=O)O)CC1)C(C)C)C(N)=O (stereo partly shown) [lutetium-177 labelled],,,"female BALB/c nu/nu mice, skin","intravenous, 100 pmol, 2 h, together with: PA 300 µg",,tissue uptake,0.17 ± 0.05 %ID/g
Cc1cc(C)c(CNC(=O)c2cc(Cl)c3c(c2C)O[C@@](C)([C@H]2CC[C@H](N(C)C)CC2)O3)c(=O)[nH]1,,,"relapsed/refractory NHL patients, PTCL","oral, dose not given",,best overall response ND,7.7%
NC(=O)c1cnc2[nH]ccc2c1N[C@@H]1[C@@H]2CC3C[C@H]1C[C@@](O)(C3)C2,,"flow cytometry, measured: CD4+ central memory T cells","Japanese healthy subjects, peripheral blood","oral, 100 mg twice daily, day 7",,change from baseline,-0.8%
CC(=O)Oc1cc2c(s1)CCN(C(C(=O)C1CC1)c1ccccc1F)C2 (stereo not shown),,"platelet aggregation, light transmittance aggregometry","human, platelet-rich plasma","30 min, IPA above 80 %, together with: TRAP 15 µM",reference: patients,patients with IPA above threshold,0%
COc1cc(-c2ccccc2)ncc1C(=O)Nc1ccc2c(=O)[nH]c(-c3ccc(C(C)(C)O)cc3)nc2c1,,"RNA-seq GSEA, measured: HALLMARK_FATTY_ACID_METABOLISM","organoids, small intestinal, Apc Q1405X, mouse","dose not given, 3 days, wild-type organoids","reference: DMSO, direction not given",normalized enrichment score,-1
COc1ncnn2ccc(-c3cnc4nc(C)n(Cc5nnc([C@@H](C)F)o5)c4c3)c12,,,"relapsed or refractory AML, MDS","dose not given, splicing factor mutation-positive",,best overall response PD,0%
OC(CCN1CCCCC1)(c1ccccc1)C1CC2C=CC1C2 (stereo not shown),,resting-state EEG,healthy elderly humans,"oral, 4 mg, eyes open, LS mean",reference: baseline,change in EEG Beta1-power Fz-Cz,7.6%
CC(C)c1ncc(C(=O)N2CCOC3(CCN(Cc4ccc(F)c(CCNC[C@H](O)c5ccc(O)c6[nH]c(=O)sc56)c4)CC3)C2)s1,,,COPD patients,"inhaled, 50 µg twice daily, 12 h postdose, dosing day 1",reference: baseline,placebo-corrected trough FEV1 change,29 mL
CNCc1cc(-c2ccccc2F)n(S(=O)(=O)c2cccnc2)c1,,esophageal lesions,rat reflux esophagitis model,"oral, 2 mg/kg",,inhibition,96%
N#Cc1ccn2c(-c3ccncc3)c(-c3ccc(F)cc3)nc2c1,,"kinase binding, competitor, MIB/MS competition, measured: CMK2",Candida albicans cell lysate,10 µM,reference: DMSO,log2 fold change,-0.593
Nc1cccc2c1CN(C1CCC(=O)NC1=O)C2=O (stereo not shown),,deuterium-hydrogen exchange,aqueous phosphate buffer,"pH 7.4, 37 °C",,exchange rate constant,-0.0349 h⁻¹
CCc1c(C)nc(-c2ccc(Cl)s2)nc1Nc1ccc(CC(=O)O)cc1,,,"C57BL/6J mice, MCD diet","intraperitoneal, 0.3 mg/kg daily, final two weeks of 6-week diet",,F4/80-positive liver cells,decreased
O=C(OC(C(F)(F)F)C(F)(F)F)N1CCN(Cc2cccc(Oc3ccccc3)c2)CC1,,PET,"rhesus monkey, hippocampus","intravenous, 0.01 mg/kg, pretreatment blocking, together with: [18F]T-401",,tracer distribution volume,6.49 mL/cm3
COc1ccc(F)cc1C(=O)NCc1ccc(-c2nn([C@@H](C)C(F)(F)F)c(N)c2C(N)=O)cc1,,,relapsed/refractory CLL patients,"dose not given, patients with longitudinal samples",,"response, best overall, PR, PR-L",81%
CCCCc1nc2c(N)nc3ccccc3c2n1Cc1ccc(N)cc1,,"IFN-γ release, ELISA","PBMC, human",24 h,,concentration,~10 µM
c1ccc(-c2n[nH]cc2-c2ccnc3ccccc23)nc1,,"kinase binding, competitor, MIB/MS competition, measured: RTK1",Candida albicans cell lysate,1 µM,reference: DMSO,log2 fold change,1.22
CN(C)C(=O)Nc1cccc(-c2ccc(N(C)C)cc2)c1,,,mouse HFD-fed,"dose not given, 72 h",reference: vehicle,cumulative food intake,106% and 82.5% and 94.3% and 117%
N#Cc1ccc2c(-c3ccncc3)c(-c3ccc(F)cc3)nn2c1,,"kinase binding, competitor, MIB/MS competition, measured: NIK1",Candida albicans cell lysate,100 nM,reference: DMSO,log2 fold change,-0.277
C[C@H]1O[C@@H](O[C@H]2CC[C@@]3(C)[C@@H](CC[C@]4(C)[C@@H]3C=C[C@]35OC[C@@]6(CCC(C)(C)C[C@H]63)[C@@H](O)C[C@]54C)[C@]2(C)CO)[C@H](O)[C@@H](O[C@@H]2O[C@H](CO)[C@@H](O)[C@H](O)[C@H]2O)[C@H]1O,,,"mouse, chronic-plus-binge ethanol, plasma","dose not given, high dose",,AST/ALT ratio,1.86 and 1.76 and 1.79 and 1.61
C[C@]12CC[C@H](O)CC1=CC[C@@H]1[C@@H]2CC[C@]2(C)C(n3cnc4ccccc43)=CC[C@@H]12,,Western blot,"male NRG mouse, CWR22Rv1 xenograft, tumour","dose not given, day 16",,full-length AR protein level,decreased
O=C(O)CNC(=O)Cc1ccccc1,,,"ventricular cardiomyocytes, C57BL/6 mouse","dose not given, 0.328 s",,sarcomere length,1.72 µm
CO[C@H]1CC[C@H](N2C(=O)CNc3ncc(-c4ccc(C(C)(C)O)nc4)nc32)CC1,,flow cytometry,"stimulated monocytes, human, blood","30 mg single dose, 3 h, mean",reference: baseline,pAKT change from baseline,-55.5%
C[C@@H](NC(=O)N1C(=O)[C@H](Cc2ccnc(N)c2)[C@H]1C(=O)O)C1CCCCC1,,,"human, plasma","continuous intravenous infusion, 1.0 mg/kg/h, days 1 to 6 of 5-day infusion, median",,time to maximum prothrombin time,120 h
Cc1cc(C)c(CNC(=O)c2cc(Cl)c3c(c2C)O[C@@](C)([C@H]2CC[C@H](N(C)C)CC2)O3)c(=O)[nH]1,,IWG 2007 criteria,"human, relapsed/refractory angioimmunoblastic T-cell lymphoma",dose not given,,best overall response PR,18%
Cc1noc(NS(=O)(=O)c2ccc(N=NN(O)c3ccccc3)cc2)c1C,,paw oedema,"rat, carrageenan oedema","oral, 100 mg/kg, 4 h after carrageenan",reference: vehicle,inhibition,76.6%
COc1nnc2ccc(N3CCC(c4ccc(OCCN5CCN(C)C(=O)[C@H]5C)cc4)CC3)nn12,,"qPCR, measured: BRD4 target genes HIST2H2BF, HEXIM1, CD274, CCR2","human, peripheral blood",concentration not given,,time to return to baseline,24 h
O=C(O)CNC(=O)C(CS)Cc1ccccc1 (stereo not shown),,"LC-MS/MS, measured: extracellular Leu-enkephalin",mouse striatal brain slices,"10 µM, 20 min, together with: 50 mM KCl",,Leu-enkephalin concentration,4420 pM and 1340 pM and 1610 pM and 7710 pM and 596 pM and 1110 pM and 1460 pM
CCCCCN1C[C@H](O)[C@@H](O)[C@H](O)[C@@H]1CO,,,"Hexb-/- mouse, cerebral cortex","30 mg/kg/day, unit not given",reference: untreated,decreased sphingolipid species,1
CC1(C)CCC(CN2CCN(c3ccc(C(=O)NS(=O)(=O)c4ccc(NCC5CCOCC5)c([N+](=O)[O-])c4)c(Oc4cnc5[nH]ccc5c4)c3)CC2)=C(c2ccc(Cl)cc2)C1,,"cell killing, flow cytometry PI exclusion","canine blood CD21+ B cells, dog 39",24 h,,EC50,873 nM
Cn1cc([C@H]2C[C@H]3CSC(N)=N[C@@]3(c3ccc(F)cc3F)CO2)cn1,,measured: Aβx-40,"Mus musculus wild-type, cerebrospinal fluid","subcutaneous, 50 mg/kg, 18 h",,Aβ40 level,1.98 ng/mL
CCN1CCN(Cc2ccc(Nc3ncc(F)c(-c4cc(F)c5nc6n(c5c4)[C@H](C)CCC6)n3)nc2)CC1,,,human advanced solid tumours,"50 mg, phase Ia monotherapy RECIST 1.1",,not evaluable response,0%
COc1ccc2c(c1)CN(Cc1ccc(C(=O)O)cc1)CCS2,,,exercised mdx mice,"50 mg/kg, 1 weeks",,forelimb grip strength,0.153 ± 0.007 kgf
CN1CC[C@@H](c2c(O)cc(O)c3c(=O)cc(-c4ccc(C(F)(F)F)cc4Cl)oc23)[C@@H]1CO,,RNA-seq,"PBMC, human, AML","100 to 200 mg, 8 days, 6 patients",,significantly deregulated genes,50 genes
Cn1cc(Nc2nc(N)nc(-c3cccc(-n4ccc5cc(C6CC6)cc(F)c5c4=O)c3CO)n2)cn1,,"CD63 upregulation, anti-IgE-induced","human, multiple ascending dose, whole blood basophils ex vivo","300 mg twice daily, day 14, 12 h",,inhibition,90.8%
N#Cc1ccc2c(c1)[C@H]1CCCN(C(=O)c3ccc4[nH]cnc4c3)[C@H]1C2,,,"T2DM patients with overweight or obesity, urine","oral, 20 mg, day 14, 0-24 h, multiple dosing, adjusted geometric mean","reference: baseline day -1, -24-0 h",total urinary corticosteroid excretion,199%
CC(C)NCC(O)c1ccc(O)c(O)c1 (stereo not shown),,,"ventricular cardiomyocytes, C57BL/6 mouse","dose not given, 0.228 s",,sarcomere length,1.52 µm
O=C(O)C1=CC(=C(c2ccc(O)c(C(=O)O)c2)c2ccc(O)c(C(=O)O)c2)C=CC1=O,,flow cytometry,"C57BL/6J mouse MC-38 tumour, tumour-infiltrating CD8+ T cells","peritumoral, dose not given, 2 cycles",reference: vehicle,PD-1 expression,no effect
CN[C@@H](C)C(=O)N[C@H]1CN(S(=O)(=O)c2cccc(S(=O)(=O)N3CC[C@H]4CC[C@@H](C(=O)NC(c5ccccc5)c5ccccc5)N4C(=O)[C@@H](NC(=O)[C@H](C)NC)C3)c2)CC[C@H]2CC[C@@H](C(=O)NC(c3ccccc3)c3ccccc3)N2C1=O,,RECIST 1.1,advanced pancreatic cancer patients,"dose not given, prior therapy, together with: AG",,best response stable disease,33.3%
C[C@H]1C[C@H]2CSC(N)=N[C@@]2(c2nc(NC(=O)c3ccc(OC(F)F)cn3)cs2)CO1,,measured: total Aβ,"healthy adults, plasma","12 mg single dose, 24 h post-dose",reference: placebo,percent change from baseline,-43.9%

# Excerpt of the above:
Structure (SMILES),target or system,assay,test system,conditions,how to read,quantity,result
O=C(O)C1=CC(=C(c2ccc(O)c(C(=O)O)c2)c2ccc(O)c(C(=O)O)c2)C=CC1=O,,flow cytometry,"C57BL/6J mouse MC-38 tumour, tumour-infiltrating CD8+ T cells","peritumoral, dose not given, 2 cycles",reference: vehicle,PD-1 expression,no effect
CC(C)c1ncc(C(=O)N2CCOC3(CCN(Cc4ccc(F)c(CCNC[C@H](O)c5ccc(O)c6[nH]c(=O)sc56)c4)CC3)C2)s1,,,COPD patients,"inhaled, 50 µg twice daily, 12 h postdose, dosing day 1",reference: baseline,placebo-corrected trough FEV1 change,29 mL
CN1CC[C@@H](c2c(O)cc(O)c3c(=O)cc(-c4ccc(C(F)(F)F)cc4Cl)oc23)[C@@H]1CO,,RNA-seq,"PBMC, human, AML","100 to 200 mg, 8 days, 6 patients",,significantly deregulated genes,50 genes
O=C(O)CNC(=O)Cc1ccccc1,,,"ventricular cardiomyocytes, C57BL/6 mouse","dose not given, 0.328 s",,sarcomere length,1.72 µm
c1ccc(-c2n[nH]cc2-c2ccnc3ccccc23)nc1,,"kinase binding, competitor, MIB/MS competition, measured: RTK1",Candida albicans cell lysate,1 µM,reference: DMSO,log2 fold change,1.22
Cc1noc(NS(=O)(=O)c2ccc(N=NN(O)c3ccccc3)cc2)c1C,,paw oedema,"rat, carrageenan oedema","oral, 100 mg/kg, 4 h after carrageenan",reference: vehicle,inhibition,76.6%
